Published values collected from several papers.
Each numbered part is a random draw from the data of one study; scales do not carry over between parts. Changes are numbered by the printed parent chain.

Study 1 — technique: protein-binding microarray; molecule type: double-stranded DNA, one strand shown; matrix: in vitro; tested at: 2540 nM top; setting: 60-bp whole probe; with: salmon DNA 0.4 mg/ml; baseline: random background probes; direction: higher = stronger binding; shared flanks, not repeated: GCCTAGCAC … GTCTTGATTCGCTTGACGCTGCTG
Target: Interferon regulatory factor 3, full length, phosphomimetic (IRF3, Homo sapiens, UniProt Q14653, residues 1-427, S386D/S396D/S398D/S402D/T404D/S405D)
UniProt Q14653, sequence (whole entry, unmodified, looked up): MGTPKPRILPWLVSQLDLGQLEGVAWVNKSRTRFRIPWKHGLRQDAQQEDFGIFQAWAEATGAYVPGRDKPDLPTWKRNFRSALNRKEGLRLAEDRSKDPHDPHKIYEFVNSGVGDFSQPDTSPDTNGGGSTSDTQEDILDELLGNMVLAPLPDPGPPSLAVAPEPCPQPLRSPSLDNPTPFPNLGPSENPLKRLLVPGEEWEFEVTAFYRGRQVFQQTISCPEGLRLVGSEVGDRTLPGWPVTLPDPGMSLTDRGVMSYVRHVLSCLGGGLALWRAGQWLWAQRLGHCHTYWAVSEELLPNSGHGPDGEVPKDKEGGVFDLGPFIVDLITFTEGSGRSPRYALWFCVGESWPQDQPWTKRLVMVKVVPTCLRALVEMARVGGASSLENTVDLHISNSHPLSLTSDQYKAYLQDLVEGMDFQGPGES
For `GACCGACTGGACTTTCGGGACGTGCTA`, “fitted relative affinity” read 0.448 z-score.
`TTGTTTTTCATTATTGTCTTGTGCTAG` — result for “fitted relative affinity”: 1.73 z-score.
For `GACGGTTTCGGGTTTCGGGACGTGCTA`, “fitted relative affinity” read 5.76 z-score.
For `GACGGACTGGGTATCTGGACGTGCTAG`, “fitted relative affinity” read -0.579 z-score.
For `TGTGTCCTGGCTTTGACTCTGTGCTAG`, “fitted relative affinity” read -0.552 z-score.
`TCAGATATCAGTCTCGATTAGTGCTAG`: “fitted relative affinity” 1.73 z-score.
Under “fitted relative affinity”, `GACGATTTCAGTTACGAGACGTGCTAG` is recorded as 1.83 z-score.
Under “fitted relative affinity”, `GACGGTTTCGAAACTGGGGACGTGCTA` is recorded as 5.31 z-score.
For `TTAGGTTTGGACTTTCGGTTAGTGCTA`, “fitted relative affinity” read 1.06 z-score.
`TTAGGCCTGGGGTTTCGGTTAGTGCTA`: “fitted relative affinity” 1.9 z-score.
`TTAGGTATCGGTCTAGGTTAGTGCTAG` — result for “fitted relative affinity”: 2.91 z-score.
`GACGACCTGAGACTGGAGACGTGCTAG`: “fitted relative affinity” -0.593 z-score.
`GACCGACTGGGGTTTCGGGACGTGCTA` — result for “fitted relative affinity”: 1.12 z-score.
`CTAGATCTCAGTCTCGATTAGTGCTAG`: “fitted relative affinity” 0.679 z-score.
Under “fitted relative affinity”, `TTAGGACTGCTACTGGTTTAGTGCTAG` is recorded as -0.553 z-score.
For `TCAGGTCTCTAACTCAAACTGTGCTAG`, “fitted relative affinity” read 0.628 z-score.
Under “fitted relative affinity”, `TTTGGACTGGACACTGGGTTAGTGCTA` is recorded as -0.531 z-score.

Study 2 — technique: DHFR PCA, deep sequencing; matrix: yeast; with: (+)-ABA 58 µM; baseline: wild-type fitted maximum; direction: higher = stronger binding
Target: ABI1, truncated, D143A, DHFR fusion (Arabidopsis thaliana)
Setting: methotrexate growth selection, single substitutions
Starting sequence: PYL1, truncated, DHFR fusion (Arabidopsis thaliana); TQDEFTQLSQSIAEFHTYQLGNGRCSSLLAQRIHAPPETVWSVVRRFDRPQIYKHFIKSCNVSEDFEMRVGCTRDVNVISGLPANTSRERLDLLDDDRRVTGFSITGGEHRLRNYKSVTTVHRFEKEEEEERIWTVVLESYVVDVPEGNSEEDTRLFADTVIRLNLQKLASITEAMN
`F124T` — result for “relative binding score”: 69.6%.
Under “relative binding score”, `T160C` is recorded as 73.9%.
For `N61Y`, “relative binding score” read 82.1%.
`S42Y`: “relative binding score” 45%.
For `F157Y`, “relative binding score” read 64.2%.
`S150Y`: “relative binding score” 34.1%.
For `S104F`, “relative binding score” read 13.8%.
Under “relative binding score”, `V121Y` is recorded as -10.7%.
`A175C` — result for “relative binding score”: 82.7%.
For `T17F`, “relative binding score” read 50.2%.
`K168G` — result for “relative binding score”: 74.5%.
For `D75G`, “relative binding score” read 58.2%.
`E109G`: “relative binding score” 74.7%.

Study 3 — target: CCND1, cyclin fold, Cln2 fusion (human); technique: yeast growth competition, sequencing; matrix: yeast; setting: weak parent motif; baseline: not given; direction: higher = stronger binding
Starting sequence: MASTL docking peptide (human); PMIAKNLMCELDE
Under “normalised enrichment score”, `PMIAKNLMCEMDE [L11M]` is recorded as -0.516.
Under “normalised enrichment score”, `PMIAKNLMCYLDE [E10Y]` is recorded as 0.147.
Under “normalised enrichment score”, `PMIAKCLMCELDE [N6C]` is recorded as 0.0628.
`PMIAKNLLCELDE [M8L]` — result for “normalised enrichment score”: 0.268.
`PMIAMNLMCELDE [K5M]`: “normalised enrichment score” 0.445.
For `PYIAKNLMCELDE [M2Y]`, “normalised enrichment score” read 0.453.
`PMIAANLMCELDE [K5A]` — result for “normalised enrichment score”: 0.196.
Under “normalised enrichment score”, `PMIAINLMCELDE [K5I]` is recorded as 0.35.
`PMIAKQLMCELDE [N6Q]` — result for “normalised enrichment score”: -0.0621.
Under “normalised enrichment score”, `PMIAKNLMCWLDE [E10W]` is recorded as 0.124.
`PMIAKNLMGELDE [C9G]` — result for “normalised enrichment score”: 0.281.
For `PMIAKNCMCELDE [L7C]`, “normalised enrichment score” read 0.116.
`PMIPKNLMCELDE [A4P]` — result for “normalised enrichment score”: 0.13.
Under “normalised enrichment score”, `PMIANNLMCELDE [K5N]` is recorded as 0.239.
`PMIAKNLMFELDE [C9F]`: “normalised enrichment score” 0.452.

Study 4 — technique: RNA Bind-n-Seq; molecule type: RNA; matrix: in vitro; tested at: 365 nM; baseline: no-protein control; direction: higher = stronger binding
Target: RNA binding protein fox-1 homolog 2, RRM domain, GST-SBP tag (RBFOX2, Homo sapiens, UniProt O43251-10, residues 100-194)
Setting: natural RNA segment, single round, ends assumed
Target sequence (chain): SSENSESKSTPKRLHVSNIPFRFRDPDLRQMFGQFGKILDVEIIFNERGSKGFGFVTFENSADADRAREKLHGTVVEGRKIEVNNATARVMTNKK
`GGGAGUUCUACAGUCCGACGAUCAAACAAAAACAAACCUUUUGGUAACUGUGCACUGUGUCCUUUAGCCAGGGCCGUGCCAACUUAUGAAGACACUGCAGCUUGAGAGGGGCUUUGCUGAGGCUUCCCCUUGGUGGAAUUCUCGGGUGCCAA`: “RBNS enrichment (R)” 1.03.
`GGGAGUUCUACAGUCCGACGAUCUAAUUUUAAAACUUGAAGACUUCCAGACUUAUCCAACUUAUAAAUAACAUAUUUCUUCAGACUAACAUCUUAAAACACUGACCUCUAUGAGGUAUUUACUGUGCAAUAACUGGAAUUCUCGGGUGCCAA` — result for “RBNS enrichment (R)”: 0.545.
Under “RBNS enrichment (R)”, `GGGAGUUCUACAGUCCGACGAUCCUUAUGCAGUGUAGUGUUCCCUUUCUGAAGACCUCAUUGUAAGACAGCUUUAUGUGCAUAGUGCUCAUCUGUAGCUAGGGCACACCAAAGGUCAUAUUUUAACUCUUUAUUGGAAUUCUCGGGUGCCAA` is recorded as 0.408.
Under “RBNS enrichment (R)”, `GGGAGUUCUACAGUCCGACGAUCUCCCUUCCACCUCCCUGAAAUGUACGUGGAGCCACUCAGAACACAACUGUAUCACUGAGGUAACUCCUCAGUGUUGGGUCCAUUACAGCCUUGGAGCAAAGUUGACCACCUGGAAUUCUCGGGUGCCAA` is recorded as 0.207.
For `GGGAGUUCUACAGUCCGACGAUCAAUUAUAGGUCCUCACUCUUGACAGGGCUGAGCAAACAGAAACUGUCCACCAGUGAUCUCAAGCAUGGCUUAGGGCUGGCAGGGACCUGAGCCCUCAUUUCACAAUGUGAUGGAAUUCUCGGGUGCCAA`, “RBNS enrichment (R)” read 0.537.
`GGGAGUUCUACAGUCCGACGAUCCAGUUCUCUUGGCCUCAAAACUCACAAGGUUUUCCCCUAAACCAGCUCCUUGGAGGCUGGCAGGAGCAGAGAGGGGUGUGUGAGGGAGGAGAGCCUGUCUUGUUGGUGGGUGGAAUUCUCGGGUGCCAA`: “RBNS enrichment (R)” 0.606.
`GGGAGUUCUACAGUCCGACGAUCCUGGUCAGACUCUGAUGUUGGGUAGCUGGCCUCUGUGGGGAUUGUAAGUGCCCUGAGGCGCUCUGUACUAGAAACUGCUCUUAAUAAUAACGGUGAUUAUUGGUUGCUGCUGGAAUUCUCGGGUGCCAA`: “RBNS enrichment (R)” 0.771.
For `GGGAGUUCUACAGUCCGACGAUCGUGAAAUGCUUAGCUGGUUAGCAUCCGAGGUGAGGGUCUGAAGGAGUCUCUCUGUCUUCUUCUUUCUUUGCCUGAUGCACAUCAAGGUAGAGUGCAUUCCGGUGUGGGUGUGGAAUUCUCGGGUGCCAA`, “RBNS enrichment (R)” read 0.391.

Mixed results
`PhoQ, residues 284 288 289 292 302 303 TTCLQL` has a fold induction of 4.48 (PhoP, residues 12 14 15 18 19 QWHVF (Escherichia coli, UniProt P23836); Sort-seq, refers to: YFP reporter; E. coli; PhoQ-PhoP variant library, with: 10 µM Mg2+; baseline: high Mg2+ state, higher = stronger signaling).

A few entries again (study 4):
`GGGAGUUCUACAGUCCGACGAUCUAAUUUUAAAACUUGAAGACUUCCAGACUUAUCCAACUUAUAAAUAACAUAUUUCUUCAGACUAACAUCUUAAAACACUGACCUCUAUGAGGUAUUUACUGUGCAAUAACUGGAAUUCUCGGGUGCCAA` — result for “RBNS enrichment (R)”: 0.545.
Under “RBNS enrichment (R)”, `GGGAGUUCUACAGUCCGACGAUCCUUAUGCAGUGUAGUGUUCCCUUUCUGAAGACCUCAUUGUAAGACAGCUUUAUGUGCAUAGUGCUCAUCUGUAGCUAGGGCACACCAAAGGUCAUAUUUUAACUCUUUAUUGGAAUUCUCGGGUGCCAA` is recorded as 0.408.
Under “RBNS enrichment (R)”, `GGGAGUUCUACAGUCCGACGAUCUCCCUUCCACCUCCCUGAAAUGUACGUGGAGCCACUCAGAACACAACUGUAUCACUGAGGUAACUCCUCAGUGUUGGGUCCAUUACAGCCUUGGAGCAAAGUUGACCACCUGGAAUUCUCGGGUGCCAA` is recorded as 0.207.
For `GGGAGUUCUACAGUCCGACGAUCAAUUAUAGGUCCUCACUCUUGACAGGGCUGAGCAAACAGAAACUGUCCACCAGUGAUCUCAAGCAUGGCUUAGGGCUGGCAGGGACCUGAGCCCUCAUUUCACAAUGUGAUGGAAUUCUCGGGUGCCAA`, “RBNS enrichment (R)” read 0.537.
